Measured values from different studies.
Protocols differ between the studies behind these lines. ± marks the error that the study gave.

The AUC of `CNCCCC1(c2ccc(F)cc2)OCc2cc(C#N)ccc21` (stereo not shown) is reported as 418 ± 52.5 ng·h/mL (CD-1 mouse, pregnant female, gestation day 14, maternal serum; intraperitoneal, 20 mg/kg citalopram, single dose).
The AUC of `OC[C@H]1O[C@@H](c2ccc(Cl)c(Cc3ccc(O[C@H]4CCOC4)cc3)c2)[C@H](O)[C@@H](O)[C@@H]1O` is reported as 626 ng·h/mL (male ICR mouse, plasma; oral, 3 mg/kg, 24 h).
The AUC of `CN(C)CCCC1(c2ccc(F)cc2)OCc2cc(C#N)ccc21` (racemic) is reported as 2240 ± 79 ng·h/mL (CD-1 mouse, pregnant female, gestation day 18, maternal serum; intraperitoneal, 20 mg/kg).
For `COc1cccc2c1C(=O)c1c(O)c3c(c(O)c1C2=O)C[C@@](O)(C(=O)CO)C[C@@H]3O[C@H]1C[C@H](N)[C@H](O)[C@H](C)O1`, the AUC was 6020 µM·h (mouse, E0771 tumour-bearing, kidney; intravenous, 92 µmol/kg).
The AUC of `O=C(N[C@@H](Cn1ccnc1)c1ccc(Cl)cc1Cl)c1ccc(-c2nnc(-c3ccccc3)o2)cc1` is reported as 163 ng·h/mL (mouse, plasma; oral, 25 mg/kg, DGAT formulation).
For `CC[C@H](C)[C@@H]1NC(=O)[C@H](Cc2ccc(O)cc2)NC(=O)[C@@H](N)CSSC[C@@H](C(=O)N2CCC[C@H]2C(=O)N[C@@H](CC(C)C)C(=O)NCC(N)=O)NC(=O)[C@H](CC(N)=O)NC(=O)[C@H](CCC(N)=O)NC1=O`, the AUC was 98.7 ± 38.8 pg·30 min/sample (microdialysis, RIA; male knockout mouse, hippocampus ECF; i.p., 12 µg).
`OC[C@H]1O[C@@H](c2ccc(F)c(Cc3cc4ccccc4s3)c2)[C@H](O)[C@@H](O)[C@@H]1O` has an AUC of 23400 ng·h/mL (male ICR mouse, kidney; oral, 3 mg/kg, 24 h).
With `CC(C)[C@H](N)C(=O)OCC1(CO)C/C1=C/n1cnc2c(=O)[nH]c(N)nc21.Cl` (mixture of isomers) the AUC was 1620 ng·h/mL (item: prodrug; Swiss-Webster mouse (male), plasma; intravenous, 24.6 mg/kg, two-compartment model).
`Cc1ccc(-c2cc(C(F)(F)F)nn2-c2ccc(S(N)(=O)=O)cc2)cc1` has an AUC of 46300 ng·h/mL (male ICR mouse, kidney; oral, 3 mg/kg, 24 h).
`Cc1cc(Nc2cc3ncccc3c(N[C@@H]3C[C@H]4CC[C@@H](C3)N4CCC#N)n2)n[nH]1` gave an AUC of 22.2 ± 21.9 µM·h (male BALB/c mouse, colon; oral, 10 mg/kg, 0 to 24 h).

A few entries again:
The AUC of `CN(C)CCCC1(c2ccc(F)cc2)OCc2cc(C#N)ccc21` (racemic) is reported as 2240 ± 79 ng·h/mL (CD-1 mouse, pregnant female, gestation day 18, maternal serum; intraperitoneal, 20 mg/kg).
